Assay results collected from several papers.
Every numbered part comes from another study and shows a few of its results, in no order.

Set 1
Target: Replicase polyprotein 1ab, nsp13 helicase (rep, Severe acute respiratory syndrome coronavirus 2, UniProt P0DTD1)
Mode: inhibitor
Tested at: 20 µM
Measurement: inhibition
SMILES = COc1ccc2nc3ccc(Cl)cc3c(SCCCN)c2c1; result = 0.19%
SMILES = N=C(N)SCCc1c[nH]cn1; result = 8.41%
SMILES = NC(=O)CN1CC(c2ccccc2)CC1=O (stereo not shown); result = -0.9%
SMILES = CCCCC(CC)CNC(=N)NC(=N)NCCCCCCNC(=N)NC(=N)NCC(CC)CCCC (stereo not shown); result = 81.5%
SMILES = N#Cc1c(Oc2ccc(F)c(NC(=O)Cc3cccc(C(F)(F)F)c3)c2)ccc2nc(NC(=O)C3CC3)sc12; result = 4.98%
SMILES = O=C1CN(/N=C/c2ccc(-c3ccc([N+](=O)[O-])cc3)o2)C(=O)N1; result = 9.13%
SMILES = CCCC(C)C1(CC)C(=O)NC(=O)NC1=O (stereo not shown); result = -4.38%
SMILES = COc1ccc(S(=O)(=O)N2c3ccc(Cl)cc3[C@](O)(c3ccccc3Cl)[C@@H]2C(=O)N2CCC[C@H]2C(N)=O)cc1OC; result = 2.14%
SMILES = Cc1cccc([C@H](C)c2c[nH]cn2)c1C; result = -5.16%
SMILES = COc1cc(NS(=O)(=O)c2ccc(N)cc2)nc(OC)n1; result = -2.34%
SMILES = CC(C)n1c(/C=C/[C@@H](O)C[C@@H](O)CC(=O)O)c(-c2ccc(F)cc2)c2ccccc21 (racemic); result = 2.38%
SMILES = Cc1[nH]c(/C=C2\C(=O)Nc3cc(-c4ccccc4)ccc32)c(C)c1CCC(=O)O; result = 2.08%
SMILES = O=C1c2cccc(O)c2C(=O)c2c(O)cccc21; result = 10.3%
SMILES = C[C@@H](O)[C@H]1C(=O)N2C(C(=O)[O-])=C(SC3Cn4cnc[n+]4C3)[C@H](C)[C@H]12 (stereo partly shown); result = -4.8%
SMILES = CCOc1ccc(Cc2cc([C@]34OC[C@](CO)(O3)[C@@H](O)[C@H](O)[C@H]4O)ccc2Cl)cc1; result = 2.89%
SMILES = Cc1csc(NC(=O)CSc2ccc(-c3ccccc3)nn2)n1; result = 1.96%
SMILES = OC[C@H]1O[C@@H](n2cnc3c(NC4CCCC4)nc(Cl)nc32)[C@H](O)[C@@H]1O; result = 2.14%
SMILES = NC1=N[C@@]2(c3cc(NC(=O)c4ccc(F)cn4)ccc3F)COC[C@H]2CS1; result = 0.82%
SMILES = NS(=O)(=O)c1ccc(-n2nc(C(F)(F)F)cc2-c2ccc(Cl)cc2)cc1; result = -0.39%
SMILES = COc1ccc2cccc(CCNC(C)=O)c2c1; result = 0.64%
SMILES = O=C1NCN(c2ccccc2)C12CCN(CCCC(c1ccc(F)cc1)c1ccc(F)cc1)CC2; result = 6.86%
SMILES = N[C@H](Cc1ccccc1)C(=O)O; result = 4.71%
SMILES = C/C(=C\C(=O)OCCCCCCCCC(=O)O)C[C@@H]1OC[C@H](C[C@@H]2O[C@H]2[C@@H](C)[C@H](C)O)[C@@H](O)[C@H]1O; result = 6.29%
SMILES = CCC1(CC)C(=O)C=CNC1=O; result = 7.11%
SMILES = C[C@]12C=CC(=O)C=C1CC[C@H]1[C@@H]3C[C@@H](O)[C@](O)(C(=O)CO)[C@@]3(C)C[C@H](O)[C@@]12F; result = 4.71%

Set 2
Target: Sal-like protein 4, full length isoform B (SALL4, Homo sapiens, UniProt Q9UJQ4-2, residues 1-616)
Technique: universal PBM
Molecule type: double-stranded DNA, one strand shown
Matrix: in vitro
Tested at: not given
Notes: 8-mer, flanks averaged, mean of replicates
Reading: higher = stronger binding
Measurement: E-score
Sequence = ATGGTCTC; result = -0.0196
Sequence = GTCATACA; result = 0.268
Sequence = GAGCAGAC; result = -0.145
Sequence = CCAAGTCG; result = -0.183
Sequence = AATAGAGA; result = 0.191
Sequence = AACGACCA; result = -0.0428
Sequence = CGTGTACC; result = -0.227
Sequence = CCTGGATA; result = -0.0985

Set 3
Target: Replicase polyprotein 1ab, 3C-like proteinase (rep, Middle East respiratory syndrome-related coronavirus, UniProt K9N7C7)
Read-out: enzyme activity
Mode: inhibitor
Tested at: 10 µM
Measurement: inhibition
SMILES = Cc1ccc(-n2sc(=O)n(Cc3ccc(F)cc3)c2=O)cc1; result = 35%
SMILES = Cc1ccccc1N(C)C(=O)c1ccc([S+]([O-])c2nccs2)c([N+](=O)[O-])c1 (stereo not shown); result = 7%
SMILES = Cc1c(-c2cnccn2)ssc1=S; result = 10%
SMILES = CC(C)Nc1cccnc1N1CCN(C(=O)c2cc3cc(NS(C)(=O)=O)ccc3[nH]2)CC1; result = 34%
SMILES = C=CC(=O)c1ccc2ccccc2c1; result = 26%
SMILES = CCC(C)SSc1ncc[nH]1 (stereo not shown); result = 62.5%

Set 4
Target: Histone acetyltransferase KAT6A, both winged helices, GST fusion (KAT6A, Homo sapiens, UniProt Q92794, residues 1-181)
Technique: protein binding microarray
Molecule type: double-stranded DNA, one strand shown
Matrix: in vitro
Tested at: not given
Notes: 8-mer, flanks averaged, mean of 2 arrays, mostly near background
Relative to: not given
Reading: higher = stronger binding
Measurement: E-score
Target sequence (chain): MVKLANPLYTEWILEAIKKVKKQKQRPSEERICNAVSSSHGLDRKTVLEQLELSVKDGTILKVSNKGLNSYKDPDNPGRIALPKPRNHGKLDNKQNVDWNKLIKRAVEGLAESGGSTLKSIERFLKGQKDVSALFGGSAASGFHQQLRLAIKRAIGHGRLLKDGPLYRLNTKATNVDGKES
Sequence = CCCCCTAA; result = -0.223
Sequence = ACTGACAT; result = -0.219
Sequence = AATTCACT; result = -0.0886
Sequence = AGCCTTAC; result = -0.118
Sequence = AATTGCCA; result = -0.199
Sequence = AGTGCCCA; result = -0.141
Sequence = GCGGTTGA; result = 0.221
Sequence = AATCGTAC; result = 0.0468

Set 5
Cell line: HEK-293T/ACE2
Read-out: pseudovirus infection
Organism: VSV pseudotyped with SARS-CoV-2 spike
Tested at: concentration not given
Relative to: vehicle-treated
Measurement: GFP-positive cells
Compound = CCC[C@H](NC(=O)[C@@H]1[C@H]2CCC[C@H]2CN1C(=O)[C@@H](NC(=O)[C@@H](NC(=O)c1cnccn1)C1CCCCC1)C(C)(C)C)C(=O)C(=O)NC1CC1; result = 103%
Compound = Cc1ccc([C@@H]2O[C@H](CO)[C@@H](O)[C@H](O)[C@H]2O)cc1Cc1ccc(-c2ccc(F)cc2)s1; result = 125%
Compound = CC(C)C[C@H](NC(=O)[C@H](CCc1ccccc1)NC(=O)CN1CCOCC1)C(=O)N[C@@H](Cc1ccccc1)C(=O)N[C@@H](CC(C)C)C(=O)[C@@]1(C)CO1; result = 8.81%
Compound = NCCC(O)(P(=O)([O-])O)P(=O)([O-])O.[Na+].[Na+]; result = 84.3%
Compound = CNC[C@H](O)[C@@H](O)[C@H](O)[C@H](O)CO.CNC[C@H](O)[C@@H](O)[C@H](O)[C@H](O)CO.C[C@@H](O[C@H]1OCCN(Cc2nn(P(=O)(O)O)c(=O)[nH]2)[C@H]1c1ccc(F)cc1)c1cc(C(F)(F)F)cc(C(F)(F)F)c1; result = 62.5%
